# Measured values of several laboratories.
# Parts stem from different laboratories: compare values within a part only.
# UniProt Q9H3N8, sequence (whole entry, looked up): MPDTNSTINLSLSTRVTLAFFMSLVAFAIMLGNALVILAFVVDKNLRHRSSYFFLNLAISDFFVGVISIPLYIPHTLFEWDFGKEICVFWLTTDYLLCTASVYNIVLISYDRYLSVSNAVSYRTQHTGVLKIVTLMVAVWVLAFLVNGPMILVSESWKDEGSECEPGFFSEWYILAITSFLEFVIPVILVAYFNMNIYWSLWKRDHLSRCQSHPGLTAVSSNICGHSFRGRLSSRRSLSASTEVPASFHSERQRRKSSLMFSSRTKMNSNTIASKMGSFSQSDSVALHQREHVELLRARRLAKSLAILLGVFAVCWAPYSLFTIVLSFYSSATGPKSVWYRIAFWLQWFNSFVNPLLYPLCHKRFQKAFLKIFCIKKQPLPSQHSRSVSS
# UniProt P07550, sequence (whole entry, looked up): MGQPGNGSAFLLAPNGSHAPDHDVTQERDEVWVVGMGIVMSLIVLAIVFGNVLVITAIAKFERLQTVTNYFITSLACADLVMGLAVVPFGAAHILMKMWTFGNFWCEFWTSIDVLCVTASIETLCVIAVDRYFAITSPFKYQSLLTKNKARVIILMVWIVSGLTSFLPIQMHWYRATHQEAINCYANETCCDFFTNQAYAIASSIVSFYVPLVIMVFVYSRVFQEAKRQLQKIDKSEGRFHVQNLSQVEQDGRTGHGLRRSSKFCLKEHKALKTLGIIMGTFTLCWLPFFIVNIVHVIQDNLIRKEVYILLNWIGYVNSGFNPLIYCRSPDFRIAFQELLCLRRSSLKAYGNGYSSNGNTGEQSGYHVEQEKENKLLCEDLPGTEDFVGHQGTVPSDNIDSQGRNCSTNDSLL
# UniProt P35367, sequence (whole entry, looked up): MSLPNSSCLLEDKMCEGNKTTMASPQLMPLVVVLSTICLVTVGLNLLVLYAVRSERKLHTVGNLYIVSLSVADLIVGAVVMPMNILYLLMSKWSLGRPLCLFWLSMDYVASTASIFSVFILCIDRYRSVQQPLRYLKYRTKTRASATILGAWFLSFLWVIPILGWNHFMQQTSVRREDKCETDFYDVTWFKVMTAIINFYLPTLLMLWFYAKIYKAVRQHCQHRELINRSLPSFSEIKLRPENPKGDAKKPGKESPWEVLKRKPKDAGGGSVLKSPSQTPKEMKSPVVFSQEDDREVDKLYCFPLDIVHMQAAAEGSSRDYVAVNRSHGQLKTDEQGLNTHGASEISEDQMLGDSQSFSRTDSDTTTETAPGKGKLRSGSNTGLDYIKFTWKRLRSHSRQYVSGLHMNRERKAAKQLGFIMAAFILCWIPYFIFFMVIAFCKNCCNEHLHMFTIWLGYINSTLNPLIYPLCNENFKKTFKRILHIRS
# UniProt P50406, sequence (whole entry, looked up): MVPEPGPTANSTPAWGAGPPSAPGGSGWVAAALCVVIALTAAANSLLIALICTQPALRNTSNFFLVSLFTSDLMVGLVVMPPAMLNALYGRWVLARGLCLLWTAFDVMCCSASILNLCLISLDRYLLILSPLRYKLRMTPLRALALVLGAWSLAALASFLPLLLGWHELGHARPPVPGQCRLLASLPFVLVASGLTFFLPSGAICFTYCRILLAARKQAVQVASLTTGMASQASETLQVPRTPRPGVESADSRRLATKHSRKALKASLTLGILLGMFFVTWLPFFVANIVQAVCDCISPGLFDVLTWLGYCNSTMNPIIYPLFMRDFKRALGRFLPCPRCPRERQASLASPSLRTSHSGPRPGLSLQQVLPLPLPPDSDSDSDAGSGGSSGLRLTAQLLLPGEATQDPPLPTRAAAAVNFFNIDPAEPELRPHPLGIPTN
# UniProt P21917, sequence (whole entry, looked up): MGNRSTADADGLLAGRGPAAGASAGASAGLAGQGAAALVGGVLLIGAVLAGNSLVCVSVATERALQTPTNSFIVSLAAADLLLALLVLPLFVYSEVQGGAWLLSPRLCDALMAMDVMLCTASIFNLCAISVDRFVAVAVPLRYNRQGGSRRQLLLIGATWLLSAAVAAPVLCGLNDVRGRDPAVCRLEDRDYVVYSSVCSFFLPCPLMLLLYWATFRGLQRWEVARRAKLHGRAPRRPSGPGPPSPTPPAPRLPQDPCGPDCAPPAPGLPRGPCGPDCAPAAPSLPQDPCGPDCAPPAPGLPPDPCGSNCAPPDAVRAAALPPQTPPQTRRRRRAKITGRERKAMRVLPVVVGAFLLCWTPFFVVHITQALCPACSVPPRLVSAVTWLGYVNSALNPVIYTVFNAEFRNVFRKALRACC
# UniProt P08172, sequence (whole entry, looked up): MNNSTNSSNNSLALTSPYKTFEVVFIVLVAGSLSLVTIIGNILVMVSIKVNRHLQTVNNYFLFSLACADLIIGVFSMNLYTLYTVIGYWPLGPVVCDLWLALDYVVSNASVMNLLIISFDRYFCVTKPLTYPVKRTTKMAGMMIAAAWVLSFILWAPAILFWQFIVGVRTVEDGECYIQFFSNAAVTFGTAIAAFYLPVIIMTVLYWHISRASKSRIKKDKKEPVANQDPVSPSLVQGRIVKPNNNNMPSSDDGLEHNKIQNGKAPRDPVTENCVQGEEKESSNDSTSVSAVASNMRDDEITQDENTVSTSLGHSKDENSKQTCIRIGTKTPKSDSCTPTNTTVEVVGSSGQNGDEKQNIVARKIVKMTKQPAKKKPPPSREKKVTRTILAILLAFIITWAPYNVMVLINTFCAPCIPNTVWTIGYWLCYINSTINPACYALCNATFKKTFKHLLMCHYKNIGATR
# UniProt P35368, sequence (whole entry, looked up): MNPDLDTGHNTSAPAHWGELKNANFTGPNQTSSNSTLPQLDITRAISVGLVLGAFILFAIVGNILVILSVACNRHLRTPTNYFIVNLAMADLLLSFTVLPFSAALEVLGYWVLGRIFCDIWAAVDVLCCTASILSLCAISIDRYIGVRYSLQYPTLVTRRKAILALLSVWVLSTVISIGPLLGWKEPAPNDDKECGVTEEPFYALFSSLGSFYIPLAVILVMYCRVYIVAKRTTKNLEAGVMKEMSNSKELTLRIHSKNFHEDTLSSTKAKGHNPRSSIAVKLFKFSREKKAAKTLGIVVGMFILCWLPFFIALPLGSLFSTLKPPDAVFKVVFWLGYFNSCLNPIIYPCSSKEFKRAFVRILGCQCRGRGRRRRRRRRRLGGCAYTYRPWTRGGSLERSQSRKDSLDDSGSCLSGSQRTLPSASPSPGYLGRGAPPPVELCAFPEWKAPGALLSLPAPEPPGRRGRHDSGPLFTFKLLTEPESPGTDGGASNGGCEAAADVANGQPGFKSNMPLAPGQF
# UniProt P18825, sequence (whole entry, looked up): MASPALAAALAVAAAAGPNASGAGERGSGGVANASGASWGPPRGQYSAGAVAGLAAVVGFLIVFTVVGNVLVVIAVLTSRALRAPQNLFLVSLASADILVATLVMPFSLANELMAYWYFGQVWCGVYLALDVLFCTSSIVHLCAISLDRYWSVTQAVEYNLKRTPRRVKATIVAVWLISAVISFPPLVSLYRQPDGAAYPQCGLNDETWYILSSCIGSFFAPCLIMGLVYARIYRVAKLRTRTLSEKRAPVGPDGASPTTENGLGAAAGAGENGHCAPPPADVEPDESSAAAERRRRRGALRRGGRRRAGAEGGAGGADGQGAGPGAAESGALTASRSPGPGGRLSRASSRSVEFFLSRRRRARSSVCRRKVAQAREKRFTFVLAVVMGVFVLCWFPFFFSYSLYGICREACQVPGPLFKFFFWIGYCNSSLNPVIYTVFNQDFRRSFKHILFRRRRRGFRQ
# UniProt P08912, sequence (whole entry, looked up): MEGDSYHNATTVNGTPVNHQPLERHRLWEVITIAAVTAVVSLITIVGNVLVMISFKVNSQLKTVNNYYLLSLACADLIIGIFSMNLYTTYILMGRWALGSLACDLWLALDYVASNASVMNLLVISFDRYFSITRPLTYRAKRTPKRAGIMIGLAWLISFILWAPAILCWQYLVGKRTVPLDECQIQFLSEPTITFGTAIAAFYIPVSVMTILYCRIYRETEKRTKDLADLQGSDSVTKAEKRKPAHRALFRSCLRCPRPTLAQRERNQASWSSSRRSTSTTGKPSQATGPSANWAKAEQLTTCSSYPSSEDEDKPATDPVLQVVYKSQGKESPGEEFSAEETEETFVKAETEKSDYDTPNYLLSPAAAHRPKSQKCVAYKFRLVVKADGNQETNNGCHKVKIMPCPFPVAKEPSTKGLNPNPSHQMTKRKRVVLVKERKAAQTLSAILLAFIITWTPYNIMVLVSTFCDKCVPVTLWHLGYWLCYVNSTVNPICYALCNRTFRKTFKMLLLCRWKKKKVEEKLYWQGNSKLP

# Block 1
# Cell line: HaCaT
# Tested at: 100 µM
# Time: 36 h
SMILES,viability [%]
O=C1CCc2cc(OCCCCc3nnnn3C3CCCCC3)ccc2N1,77
C=C(c1ccc(C(=O)O)cc1)c1cc2c(cc1C)C(C)(C)CCC2(C)C,6.44
C[C@@H](Oc1cc(-c2cnn(C3CCNCC3)c2)cnc1N)c1c(Cl)ccc(F)c1Cl,5.11
COc1cc([C@H]2Oc3cc([C@H]4Oc5cc(O)cc(O)c5C(=O)[C@@H]4O)ccc3O[C@@H]2CO)ccc1O,58.5
COc1c(C)c2c(c(O)c1C/C=C(\C)CCC(=O)O)C(=O)OC2,63.8
CCn1c(=O)c2c(nc(/C=C/c3ccc(OC)c(OC)c3)n2C)n(CC)c1=O,80.7
NCCc1ccc(O)c(O)c1,98.5
CC(=O)Nc1ccc(O)cc1,76.7
Clc1ccc(C(Cn2ccnc2)OCc2ccsc2Cl)c(Cl)c1 (stereo not shown),4.48
O=C(OCc1ccccc1)c1ccccc1,65.7
NC(=O)N1c2ccccc2C=Cc2ccccc21,89.9
OC[C@H]1O[C@@H](c2ccc(Cl)c(Cc3ccc(O[C@H]4CCOC4)cc3)c2)[C@H](O)[C@@H](O)[C@@H]1O,91.1
CC(=O)N1CCN(c2ccc(OC[C@@H]3CO[C@@](Cn4ccnc4)(c4ccc(Cl)cc4Cl)O3)cc2)CC1 (racemic),4.36
CCC1(C)CC(=O)NC1=O (stereo not shown),94.1
C=CC[N+]1([C@H]2C[C@H]3[C@@H]4CC[C@H]5C[C@H](O)[C@@H](N6CCOCC6)C[C@]5(C)[C@H]4CC[C@]3(C)[C@H]2OC(C)=O)CCCC1,72.8
COc1cc2nc(N(C)CCCNC(=O)C3CCCO3)nc(N)c2cc1OC (stereo not shown),54.3
CCCC1O[C@@H]2C[C@H]3[C@@H]4CCC5=CC(=O)C=C[C@]5(C)[C@H]4[C@@H](O)C[C@]3(C)[C@]2(C(=O)CO)O1 (stereo partly shown),70.1
C[C@@](Cc1ccc(O)c(O)c1)(NN)C(=O)O,112

# Block 2
# Organism: Plasmodium berghei
# Mode: inhibitor
# Cells: Huh-7
# Strain: GFP-expressing sporozoites, liver stage
# Tested at: 10 µM
# Time: 24 h
# Reference: untreated control
Compound,infection rate
CO/N=C(\C(=O)N[C@@H]1C(=O)N2C(C(=O)O)=C(CSc3nc(=O)c(O)nn3C)CS[C@H]12)c1csc(N)n1,77.6%
CC(C)(C)NCC(O)c1ccc(O)c(CO)c1 (racemic),103%
CO[C@@]1(NC(=O)CSCC#N)C(=O)N2C(C(=O)O)=C(CSc3nnnn3C)CS[C@@H]21,103%
O=C1CN2Cc3c(ccc(Cl)c3Cl)N=C2N1,99.8%
COc1cc2nc(N(C)CCCNC(=O)C3CCCO3)nc(N)c2cc1OC (racemic),120%
CC(=O)O[C@]1(C(C)=O)CC[C@H]2[C@@H]3C=C(Cl)C4=CC(=O)[C@@H]5C[C@@H]5[C@]4(C)[C@H]3CC[C@@]21C,93.4%
CCCC1O[C@@H]2C[C@H]3[C@@H]4CCC5=CC(=O)C=C[C@]5(C)[C@H]4[C@@H](O)C[C@]3(C)[C@]2(C(=O)CO)O1 (stereo partly shown),8.3%
O=C(O)CCCC[C@@H]1SC[C@@H]2NC(=O)N[C@@H]21,95.1%
Cc1nc(C)c(Cl)c(O)c1Cl,23.2%
CN(C)CCC(c1ccc(Br)cc1)c1ccccn1 (stereo not shown),90.1%
CN1CCc2cccc3c2[C@H]1Cc1ccc(O)c(O)c1-3,20.1%
CCN(CC)CCOCCOC(=O)C1(c2ccccc2)CCCC1,70%
CCCCOc1ccc(C(=O)CCN2CCCCC2)cc1,83.3%
CO/N=C(\C(=O)N[C@@H]1C(=O)N2C(C(=O)O)=C(COC(C)=O)CS[C@H]12)c1csc(N)n1,83.3%
C[C@H]1[C@H](NC(=O)/C(=N\OC(C)(C)C(=O)O)c2csc(N)n2)C(=O)N1S(=O)(=O)O,93%

# Block 3
# SMILES: CCS(=O)(=O)c1cc2cc(C[C@](O)(CC(C)(C)c3ccc(F)cc3C(N)=O)C(F)(F)F)[nH]c2cn1
# Effect on: ligand displacement
# Tested at: 10 µM
target,inhibition
"5-hydroxytryptamine receptor 7 (HTR7, Homo sapiens, UniProt P34969)",4.98%
"Alpha-1B adrenergic receptor (ADRA1B, Homo sapiens, UniProt P35368)",3.39%
"Sigma non-opioid intracellular receptor 1 (SIGMAR1, Homo sapiens, UniProt Q99720)",10.1%
"Sigma intracellular receptor 2 (TMEM97, Homo sapiens, UniProt Q5BJF2)",9.04%
"Alpha-2A adrenergic receptor (ADRA2A, Homo sapiens, UniProt P08913)",-4.94%
"Muscarinic acetylcholine receptor M5 (CHRM5, Homo sapiens, UniProt P08912)",1.86%
"Beta-2 adrenergic receptor (ADRB2, Homo sapiens, UniProt P07550)",4.71%
"D(4) dopamine receptor (DRD4, Homo sapiens, UniProt P21917)",-7.41%
"Histamine H4 receptor (HRH4, Homo sapiens, UniProt Q9H3N8)",3.88%
"Alpha-2C adrenergic receptor (ADRA2C, Homo sapiens, UniProt P18825)",-1.88%
"5-hydroxytryptamine receptor 6 (HTR6, Homo sapiens, UniProt P50406)",-3.78%
"Alpha-1D adrenergic receptor (ADRA1D, Homo sapiens, UniProt P25100)",-22.1%
"Histamine H1 receptor (HRH1, Homo sapiens, UniProt P35367)",4.27%
"Muscarinic acetylcholine receptor M2 (CHRM2, Homo sapiens, UniProt P08172)",-0.48%

# Block 4
# Target: Mitogen-activated protein kinase kinase kinase kinase 5 (MAP4K5, Homo sapiens, UniProt Q9Y4K4)
# UniProt Q9Y4K4, sequence (whole entry, looked up): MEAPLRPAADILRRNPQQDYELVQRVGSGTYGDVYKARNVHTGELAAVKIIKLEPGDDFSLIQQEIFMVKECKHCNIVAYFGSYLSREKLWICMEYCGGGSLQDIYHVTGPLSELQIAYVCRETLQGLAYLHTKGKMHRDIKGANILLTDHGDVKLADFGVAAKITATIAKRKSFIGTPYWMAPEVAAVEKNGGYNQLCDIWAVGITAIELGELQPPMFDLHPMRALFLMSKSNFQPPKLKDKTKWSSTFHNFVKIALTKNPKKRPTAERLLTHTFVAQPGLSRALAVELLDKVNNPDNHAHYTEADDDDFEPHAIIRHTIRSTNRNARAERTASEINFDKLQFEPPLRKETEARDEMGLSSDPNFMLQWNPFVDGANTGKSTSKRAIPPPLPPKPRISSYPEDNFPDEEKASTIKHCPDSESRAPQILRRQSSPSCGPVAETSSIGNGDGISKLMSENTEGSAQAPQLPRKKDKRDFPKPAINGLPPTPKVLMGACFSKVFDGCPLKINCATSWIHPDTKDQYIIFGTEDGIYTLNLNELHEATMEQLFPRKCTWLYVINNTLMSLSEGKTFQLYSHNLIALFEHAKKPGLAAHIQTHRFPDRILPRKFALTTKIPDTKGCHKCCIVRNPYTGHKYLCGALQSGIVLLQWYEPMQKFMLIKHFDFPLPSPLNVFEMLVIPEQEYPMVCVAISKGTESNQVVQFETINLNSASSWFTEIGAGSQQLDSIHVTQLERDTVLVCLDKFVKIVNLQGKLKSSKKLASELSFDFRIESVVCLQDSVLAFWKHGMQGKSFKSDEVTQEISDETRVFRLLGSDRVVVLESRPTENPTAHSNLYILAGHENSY
# Effect on: enzyme activity
# Mode: inhibitor
# Tested at: 0.5 µM
# Reference: control
Compound,remaining activity
Cc1cc(Nc2nc(-c3ccccc3)nc3ccccc23)n[nH]1,20.2%
NC(=O)c1ccc(N(C(N)=O)c2c(F)cccc2F)nc1-c1ccc(F)cc1F,98.3%
CC[n+]1c(/C=C/N(C)c2ccccc2)n(-c2ccccc2)c2ccc(-c3nc4ccccc4s3)cc21,91.7%
N#CC(=C(N)Sc1ccc(N)cc1)c1ccccc1C(F)(F)F,94%
CC#CC(=O)Nc1cc2c(Nc3ccc(F)c(Cl)c3)ncnc2cn1,100%
Cc1cncc2cccc(S(=O)(=O)N3CCCN(C(=O)CN)C[C@@H]3C)c12,103%
O=S(=O)(NCCNC/C=C/c1ccc(Br)cc1)c1cccc2cnccc12,30.9%
CSc1nc(-c2ccnc(N[C@@H](C)c3ccccc3)c2)c(-c2ccc(F)cc2)[nH]1 (racemic),85.6%
CCc1[nH]c(-c2ccc(OC)cc2)nc1-c1ccncc1,106%
CC(C)(C)n1nc(Cc2cccc3ccccc23)c2c(N)ncnc21,53.9%
Nc1nccc(-c2c(-c3ccc(F)cc3)ncn2C2CCNCC2)n1,68.1%

# Excerpt of the above (block 2):
Compound,infection rate
CCN(CC)CCOCCOC(=O)C1(c2ccccc2)CCCC1,70%
CO/N=C(\C(=O)N[C@@H]1C(=O)N2C(C(=O)O)=C(COC(C)=O)CS[C@H]12)c1csc(N)n1,83.3%
CCCC1O[C@@H]2C[C@H]3[C@@H]4CCC5=CC(=O)C=C[C@]5(C)[C@H]4[C@@H](O)C[C@]3(C)[C@]2(C(=O)CO)O1 (stereo partly shown),8.3%
C[C@H]1[C@H](NC(=O)/C(=N\OC(C)(C)C(=O)O)c2csc(N)n2)C(=O)N1S(=O)(=O)O,93%
Cc1nc(C)c(Cl)c(O)c1Cl,23.2%
CCCCOc1ccc(C(=O)CCN2CCCCC2)cc1,83.3%
